Assay results from different studies.
Compare with care: the assays were run in different laboratories. ± marks the error that the study gave.

CC(C)N(N=O)C(C)C
revertant colonies per plate (Salmonella typhimurium; mutagenicity, Ames plate incorporation; TA1537; 500 µg/plate, without S9, methanol): 12.7 ± 5

Nc1ccn([C@H]2CC[C@@H](CO)O2)c(=O)n1
maximum inhibition (human coronavirus OC43; virus-induced cell killing; MRC-5; screen): 14.5%

CC(C)N(C)N=O
revertant colonies per plate (Salmonella typhimurium; mutagenicity, Ames plate incorporation; TA98; 50 µg/plate, 3 d, without S9, methanol): 23.3 ± 2

CC(=O)N1CCC(C(=O)N2CCN3C(=O)c4cc(-c5ccccc5)ccc4NC(=O)C3C2)CC1 (centres unmarked)
revertants per plate (Salmonella typhimurium; TA1537; 158 µg/plate): 7.5

O=[N+]([O-])c1ccc(N2CCC(NCCC(O)c3ccc(F)c4ccccc34)CC2)c(C(F)(F)F)c1 (centres unmarked)
induction factor (Salmonella typhimurium; SOS response, SOS/umu test; TA1535/pSK1002, TGA medium; 0.000122 mg/mL, 4 h, without S9; reference: untreated): 0.6

COc1cccc(-c2n[nH]c(SCc3ccccn3)n2)c1OC
revertant colonies per plate (Salmonella typhimurium; Ames test, plate incorporation; TA98; 0.13 mg/plate, without S9): 27

N#C[C@@]1(n2ccc(N)nc2=O)O[C@H](CO)[C@@H](O)[C@H]1O
viability (Salmonella typhimurium; TA100; 100 µM, without S9, unit not given; reference: control): 86.9

Cc1cc(C(=O)NC(C)(C)COc2cccc3c2C(N)=NS(=O)(=O)N3)cc(C)n1
revertant ratio (Salmonella typhimurium; Ames test, initial; TA98; 1500 µg/plate; reference: solvent control): 1.1

O=[N+]([O-])c1ccc(NC2CCNCC2)c(C(F)(F)F)c1
induction factor (Salmonella typhimurium; genotoxicity, SOS/umu test; TA1535/pSK1002; 0.016 mg/mL, 4 h, with S9, full range): 0.6

CC(C)n1nc(-c2ccc3oc(N)nc3c2)c2c(N)ncnc21
maximum inhibition (human coronavirus OC43; virus-induced cell killing; MRC-5; screen): 11.9%

O=[N+]([O-])c1ccc(N2CCN(CCC(O)c3ccc(F)cc3)CC2)c(C(F)(F)F)c1 (centres unmarked)
induction factor (Salmonella typhimurium; genotoxicity, SOS/umu test; TA1535/pSK1002; 0.001 mg/mL, 4 h, without S9, lower range): 0.9

COCCN(CCOC)N=O
revertant colonies per plate (Salmonella typhimurium; mutagenicity, Ames plate incorporation; TA1537; 5000 µg/plate, 3 d, without S9, methanol): 7.7 ± 4

Fc1ccc(C2=CCNCC2)cc1
survival (Salmonella typhimurium; SOS/umu test; TA1535/pSK1002; 0.016 mg/mL, 4 h, without S9, full range): 99.5%

CNC(=O)c1c(N(C)N=O)ncn1C
revertant colonies per plate (Salmonella typhimurium; mutagenicity, Ames plate incorporation; TA1537; 500 µg/plate, without S9, methanol): 10.3 ± 1

A few entries again:
N#C[C@@]1(n2ccc(N)nc2=O)O[C@H](CO)[C@@H](O)[C@H]1O
viability (Salmonella typhimurium; TA100; 100 µM, without S9, unit not given; reference: control): 86.9

CC(C)n1nc(-c2ccc3oc(N)nc3c2)c2c(N)ncnc21
maximum inhibition (human coronavirus OC43; virus-induced cell killing; MRC-5; screen): 11.9%
